Results of several laboratories.
Parts stem from different laboratories: compare values within a part only.
UniProt P42685, sequence (whole entry, looked up): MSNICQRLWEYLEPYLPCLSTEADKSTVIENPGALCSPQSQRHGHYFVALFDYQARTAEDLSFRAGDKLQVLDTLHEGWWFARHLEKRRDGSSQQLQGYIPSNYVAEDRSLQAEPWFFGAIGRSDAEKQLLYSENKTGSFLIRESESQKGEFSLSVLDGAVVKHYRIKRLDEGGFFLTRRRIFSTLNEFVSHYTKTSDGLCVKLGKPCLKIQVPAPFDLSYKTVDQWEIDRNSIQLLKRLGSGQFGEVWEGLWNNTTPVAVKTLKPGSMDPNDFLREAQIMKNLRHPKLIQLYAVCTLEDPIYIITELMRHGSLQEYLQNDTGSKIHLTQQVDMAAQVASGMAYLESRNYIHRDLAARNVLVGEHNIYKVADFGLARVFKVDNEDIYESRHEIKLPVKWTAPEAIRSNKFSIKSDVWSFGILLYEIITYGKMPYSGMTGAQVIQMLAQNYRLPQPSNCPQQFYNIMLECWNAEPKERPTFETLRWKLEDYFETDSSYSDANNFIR
UniProt Q13131, sequence (whole entry, looked up): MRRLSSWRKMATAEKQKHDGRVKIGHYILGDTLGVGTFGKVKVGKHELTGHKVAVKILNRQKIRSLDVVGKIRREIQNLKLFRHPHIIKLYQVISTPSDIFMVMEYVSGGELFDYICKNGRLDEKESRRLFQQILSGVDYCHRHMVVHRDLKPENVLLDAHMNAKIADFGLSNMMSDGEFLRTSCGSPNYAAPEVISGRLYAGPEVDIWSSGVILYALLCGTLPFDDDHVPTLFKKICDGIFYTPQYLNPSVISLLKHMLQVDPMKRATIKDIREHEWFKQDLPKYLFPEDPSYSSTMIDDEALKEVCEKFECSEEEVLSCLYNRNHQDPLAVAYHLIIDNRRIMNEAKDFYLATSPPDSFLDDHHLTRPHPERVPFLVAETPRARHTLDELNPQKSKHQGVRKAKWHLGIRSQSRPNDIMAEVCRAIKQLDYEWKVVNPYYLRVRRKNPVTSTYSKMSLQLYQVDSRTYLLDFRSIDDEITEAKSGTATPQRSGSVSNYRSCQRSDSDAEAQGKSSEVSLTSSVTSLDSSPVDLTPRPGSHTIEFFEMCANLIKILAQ
UniProt O43603, sequence (whole entry, looked up): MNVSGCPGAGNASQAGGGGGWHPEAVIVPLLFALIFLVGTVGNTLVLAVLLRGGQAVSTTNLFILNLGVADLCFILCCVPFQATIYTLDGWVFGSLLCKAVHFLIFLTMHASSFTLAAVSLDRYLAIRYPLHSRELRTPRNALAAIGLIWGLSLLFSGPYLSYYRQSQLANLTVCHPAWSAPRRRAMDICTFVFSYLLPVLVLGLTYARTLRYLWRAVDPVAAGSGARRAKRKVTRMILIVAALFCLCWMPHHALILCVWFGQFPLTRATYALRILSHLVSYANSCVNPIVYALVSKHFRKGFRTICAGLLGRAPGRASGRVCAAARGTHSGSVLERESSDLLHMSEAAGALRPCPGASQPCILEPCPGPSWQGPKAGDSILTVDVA
UniProt P35626, sequence (whole entry, looked up): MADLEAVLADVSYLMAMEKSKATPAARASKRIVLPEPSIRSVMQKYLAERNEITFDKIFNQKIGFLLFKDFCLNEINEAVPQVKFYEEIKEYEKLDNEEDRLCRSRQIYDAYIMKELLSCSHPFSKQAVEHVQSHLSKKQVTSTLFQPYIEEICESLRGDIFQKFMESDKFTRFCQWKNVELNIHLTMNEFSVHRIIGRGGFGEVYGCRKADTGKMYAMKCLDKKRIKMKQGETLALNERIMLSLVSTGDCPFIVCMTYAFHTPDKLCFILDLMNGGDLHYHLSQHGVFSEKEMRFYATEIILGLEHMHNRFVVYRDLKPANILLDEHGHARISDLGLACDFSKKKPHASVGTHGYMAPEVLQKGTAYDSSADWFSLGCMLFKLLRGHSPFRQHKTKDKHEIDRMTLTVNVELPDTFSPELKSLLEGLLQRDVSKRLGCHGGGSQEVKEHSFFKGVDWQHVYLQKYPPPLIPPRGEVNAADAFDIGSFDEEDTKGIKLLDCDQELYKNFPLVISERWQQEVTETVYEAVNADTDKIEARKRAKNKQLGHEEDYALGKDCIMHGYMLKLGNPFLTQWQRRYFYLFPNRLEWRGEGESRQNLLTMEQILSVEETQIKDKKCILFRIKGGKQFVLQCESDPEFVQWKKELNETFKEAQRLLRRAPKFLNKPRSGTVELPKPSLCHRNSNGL
UniProt P11362, sequence (whole entry, looked up): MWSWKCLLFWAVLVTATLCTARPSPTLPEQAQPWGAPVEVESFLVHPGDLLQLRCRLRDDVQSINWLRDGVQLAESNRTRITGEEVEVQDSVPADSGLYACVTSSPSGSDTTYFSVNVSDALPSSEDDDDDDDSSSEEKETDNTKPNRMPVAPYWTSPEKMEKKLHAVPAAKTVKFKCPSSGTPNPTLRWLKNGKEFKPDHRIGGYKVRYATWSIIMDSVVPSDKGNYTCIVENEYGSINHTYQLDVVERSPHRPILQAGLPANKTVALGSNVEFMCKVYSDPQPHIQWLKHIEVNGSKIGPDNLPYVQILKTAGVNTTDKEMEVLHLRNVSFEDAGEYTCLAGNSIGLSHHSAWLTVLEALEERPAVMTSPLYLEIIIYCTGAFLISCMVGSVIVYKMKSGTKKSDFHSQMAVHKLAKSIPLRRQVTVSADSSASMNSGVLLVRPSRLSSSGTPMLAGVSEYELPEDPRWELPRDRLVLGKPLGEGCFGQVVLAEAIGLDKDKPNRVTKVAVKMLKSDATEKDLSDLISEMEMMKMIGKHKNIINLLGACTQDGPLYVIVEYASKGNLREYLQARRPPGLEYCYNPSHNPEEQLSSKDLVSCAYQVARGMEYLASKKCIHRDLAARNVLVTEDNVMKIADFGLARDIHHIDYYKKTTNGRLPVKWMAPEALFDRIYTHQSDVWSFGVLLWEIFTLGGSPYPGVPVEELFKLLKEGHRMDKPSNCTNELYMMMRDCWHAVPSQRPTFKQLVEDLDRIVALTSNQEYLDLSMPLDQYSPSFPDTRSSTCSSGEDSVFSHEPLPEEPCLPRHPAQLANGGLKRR
UniProt O95838, sequence (whole entry, looked up): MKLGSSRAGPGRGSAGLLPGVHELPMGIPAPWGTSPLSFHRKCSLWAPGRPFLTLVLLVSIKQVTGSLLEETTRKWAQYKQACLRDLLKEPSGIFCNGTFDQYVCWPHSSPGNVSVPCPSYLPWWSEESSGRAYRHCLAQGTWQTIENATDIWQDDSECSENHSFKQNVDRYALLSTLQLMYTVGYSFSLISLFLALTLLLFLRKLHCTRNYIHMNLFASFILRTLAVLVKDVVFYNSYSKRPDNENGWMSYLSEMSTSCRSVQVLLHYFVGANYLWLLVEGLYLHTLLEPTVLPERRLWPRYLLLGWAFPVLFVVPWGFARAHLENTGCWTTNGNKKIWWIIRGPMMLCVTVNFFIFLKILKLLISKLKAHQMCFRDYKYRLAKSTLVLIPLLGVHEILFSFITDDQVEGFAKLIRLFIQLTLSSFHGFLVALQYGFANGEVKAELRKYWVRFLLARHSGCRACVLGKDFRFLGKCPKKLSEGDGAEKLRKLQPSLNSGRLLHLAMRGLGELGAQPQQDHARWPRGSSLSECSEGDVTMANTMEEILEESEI
UniProt Q8IYT8, sequence (whole entry, looked up): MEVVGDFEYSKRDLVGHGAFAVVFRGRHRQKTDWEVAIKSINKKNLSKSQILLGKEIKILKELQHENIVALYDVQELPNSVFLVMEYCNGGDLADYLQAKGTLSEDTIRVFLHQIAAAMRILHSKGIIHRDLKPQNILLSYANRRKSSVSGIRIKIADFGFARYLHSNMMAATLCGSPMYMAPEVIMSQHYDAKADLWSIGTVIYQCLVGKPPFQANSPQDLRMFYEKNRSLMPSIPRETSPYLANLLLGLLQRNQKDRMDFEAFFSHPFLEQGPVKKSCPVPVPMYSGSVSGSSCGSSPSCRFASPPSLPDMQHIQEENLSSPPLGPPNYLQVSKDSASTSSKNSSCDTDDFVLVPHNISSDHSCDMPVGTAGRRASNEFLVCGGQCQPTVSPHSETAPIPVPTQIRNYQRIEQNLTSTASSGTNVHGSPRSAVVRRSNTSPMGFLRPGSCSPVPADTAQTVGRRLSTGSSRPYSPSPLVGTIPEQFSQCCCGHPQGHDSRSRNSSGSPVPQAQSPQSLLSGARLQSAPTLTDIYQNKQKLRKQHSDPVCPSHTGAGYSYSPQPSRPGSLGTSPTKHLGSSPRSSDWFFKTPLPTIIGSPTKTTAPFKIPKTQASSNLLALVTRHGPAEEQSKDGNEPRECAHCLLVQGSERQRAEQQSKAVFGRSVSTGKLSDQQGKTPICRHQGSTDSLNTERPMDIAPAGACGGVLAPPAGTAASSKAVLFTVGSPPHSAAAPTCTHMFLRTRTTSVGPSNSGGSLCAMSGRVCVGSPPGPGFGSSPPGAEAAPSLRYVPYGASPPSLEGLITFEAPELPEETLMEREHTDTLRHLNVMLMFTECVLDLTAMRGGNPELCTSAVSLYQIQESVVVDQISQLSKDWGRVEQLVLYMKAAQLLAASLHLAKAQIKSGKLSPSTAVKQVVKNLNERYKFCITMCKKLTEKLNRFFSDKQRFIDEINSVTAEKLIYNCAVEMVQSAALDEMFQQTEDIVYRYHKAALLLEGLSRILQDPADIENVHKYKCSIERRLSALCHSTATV

Study 1
SMILES: N=C(N)NC(=O)c1cnn(-c2cccc3ncccc23)c1C1CC1
Effect on: β-arrestin recruitment
Mode: agonist
Method: PRESTO-Tango
Concentration: 10 µM
Reference: untreated
Measurement: fold over basal
Trace amine-associated receptor 5 (TAAR5, Homo sapiens, UniProt O14804): 1.32 fold
Mas-related G-protein coupled receptor member X2 (MRGPRX2, Homo sapiens, UniProt Q96LB1): 1.06
Proteinase-activated receptor 3 (F2RL2, Homo sapiens, UniProt O00254): 1.25
Alpha-2B adrenergic receptor (ADRA2B, Homo sapiens, UniProt P18089): 0.72
G-protein coupled receptor 171 (GPR171, Homo sapiens, UniProt O14626): 1.16
Prostaglandin D2 receptor (PTGDR, Homo sapiens, UniProt Q13258): 2.02
Muscarinic acetylcholine receptor M5 (CHRM5, Homo sapiens, UniProt P08912): 0.7
C-C chemokine receptor type 2, isoform B (CCR2, Homo sapiens, UniProt P41597): 0.94
G-protein coupled receptor family C group 6 member A (GPRC6A, Homo sapiens, UniProt Q5T6X5): 1.44 fold
Alpha-2A adrenergic receptor (ADRA2A, Homo sapiens, UniProt P08913): 1.44
Galanin receptor type 2 (GALR2, Homo sapiens, UniProt O43603): 0.94 fold
Neuropeptide Y receptor type 2 (NPY2R, Homo sapiens, UniProt P49146): 0.67
Histamine H2 receptor (HRH2, Homo sapiens, UniProt P25021): 0.88 fold
Glucagon-like peptide 2 receptor (GLP2R, Homo sapiens, UniProt O95838): 0.58 fold
Vasopressin V1b receptor (AVPR1B, Homo sapiens, UniProt P47901): 0.7

Study 2
SMILES: C[C@H](c1ccc(F)cc1)N(Cc1cccc(C(=O)O)c1)C(=O)c1cnc2ccccc2c1
Concentration: 1 µM
Measurement: remaining binding
Muscle, skeletal receptor tyrosine-protein kinase (MUSK, Homo sapiens, UniProt O15146); cell-free assay, competition with immobilised ligand: 76%
Calcium/calmodulin-dependent protein kinase type II subunit gamma (CAMK2G, Homo sapiens, UniProt Q13555); cell-free assay, competition with immobilised ligand: 94%
G protein-coupled receptor kinase 3 (GRK3, Homo sapiens, UniProt P35626); binding, competition with immobilised ligand: 40%
Phosphatidylinositol 4,5-bisphosphate 3-kinase catalytic subunit alpha isoform (PIK3CA, Homo sapiens, UniProt P42336, I800L); cell-free assay, competition with immobilised ligand: 61%
Tyrosine-protein kinase Fgr (FGR, Homo sapiens, UniProt P09769); cell-free assay, competition with immobilised ligand: 100%
Mast/stem cell growth factor receptor Kit, autoinhibited (KIT, Homo sapiens, UniProt P10721); cell-free assay, competition with immobilised ligand: 100%
Serine/threonine-protein kinase Nek2 (NEK2, Homo sapiens, UniProt P51955); cell-free assay, competition with immobilised ligand: 94%
Serine/threonine-protein kinase WNK1 (WNK1, Homo sapiens, UniProt Q9H4A3); cell-free assay, competition with immobilised ligand: 100%
Serine/threonine-protein kinase DCLK1 (DCLK1, Homo sapiens, UniProt O15075); cell-free assay, competition with immobilised ligand: 100%
Protein kinase C theta type (PRKCQ, Homo sapiens, UniProt Q04759); cell-free assay, competition with immobilised ligand: 100%
Mitogen-activated protein kinase kinase kinase 20 (MAP3K20, Homo sapiens, UniProt Q9NYL2); cell-free assay, competition with immobilised ligand: 100%
Serine/threonine-protein kinase ULK2 (ULK2, Homo sapiens, UniProt Q8IYT8); cell-free assay, competition with immobilised ligand: 81%
Serine/threonine-protein kinase PLK4 (PLK4, Homo sapiens, UniProt O00444); cell-free assay, competition with immobilised ligand: 100%
Cyclin-dependent kinase 18 (CDK18, Homo sapiens, UniProt Q07002); cell-free assay, competition with immobilised ligand: 100%
NUAK family SNF1-like kinase 1 (NUAK1, Homo sapiens, UniProt O60285); cell-free assay, competition with immobilised ligand: 100%
Serine/threonine-protein kinase MRCK gamma (CDC42BPG, Homo sapiens, UniProt Q6DT37); competition binding: 100%
eIF-2-alpha kinase GCN2, C-terminal kinase domain (EIF2AK4, Homo sapiens, UniProt Q9P2K8, S808G); cell-free assay, competition with immobilised ligand: 100%
Mitogen-activated protein kinase kinase kinase 12 (MAP3K12, Homo sapiens, UniProt Q12852); cell-free assay, competition with immobilised ligand: 100%
Ribosomal protein S6 kinase alpha-6, N-terminal kinase domain (RPS6KA6, Homo sapiens, UniProt Q9UK32); cell-free assay, competition with immobilised ligand: 100%
5'-AMP-activated protein kinase catalytic subunit alpha-1 (PRKAA1, Homo sapiens, UniProt Q13131); cell-free assay, competition with immobilised ligand: 100%

Study 3
SMILES: CN([C@@H](Cc1ccc(OS(=O)(=O)c2cccc3cnccc23)cc1)C(=O)N1CCN(c2ccccc2)CC1)S(=O)(=O)c1cccc2cnccc12
Effect on: enzyme activity
Mode: inhibitor
Concentration: 0.5 µM
Reference: control
Measurement: remaining activity
MAP kinase-activated protein kinase 2 (MAPKAPK2, Homo sapiens, UniProt P49137): 103%
Casein kinase I isoform gamma-3 (CSNK1G3, Homo sapiens, UniProt Q9Y6M4): 104%
Tyrosine-protein kinase JAK3 (JAK3, Homo sapiens, UniProt P52333): 98%
Casein kinase I isoform gamma-2 (CSNK1G2, Homo sapiens, UniProt P78368): 100%
Serine/threonine-protein kinase Nek1 (NEK1, Homo sapiens, UniProt Q96PY6): 102%
Tyrosine-protein kinase Mer (MERTK, Homo sapiens, UniProt Q12866): 100%
Activin receptor type-1B (ACVR1B, Homo sapiens, UniProt P36896): 98.7%
Dual specificity mitogen-activated protein kinase kinase 2 (MAP2K2, Homo sapiens, UniProt P36507): 119%
Fibroblast growth factor receptor 1 (FGFR1, Homo sapiens, UniProt P11362): 103%
Serine/threonine-protein kinase ULK3 (ULK3, Homo sapiens, UniProt Q6PHR2): 98.6%
Tyrosine-protein kinase FRK (FRK, Homo sapiens, UniProt P42685): 101%
Serine/threonine-protein kinase TAO2 (TAOK2, Homo sapiens, UniProt Q9UL54): 98.3%
Angiopoietin-1 receptor (TEK, Homo sapiens, UniProt Q02763): 106%

Study 4
Target: Calcium/calmodulin-dependent protein kinase type II subunit alpha (CAMK2A, Homo sapiens, UniProt Q9UQM7)
UniProt Q9UQM7, sequence (whole entry, looked up): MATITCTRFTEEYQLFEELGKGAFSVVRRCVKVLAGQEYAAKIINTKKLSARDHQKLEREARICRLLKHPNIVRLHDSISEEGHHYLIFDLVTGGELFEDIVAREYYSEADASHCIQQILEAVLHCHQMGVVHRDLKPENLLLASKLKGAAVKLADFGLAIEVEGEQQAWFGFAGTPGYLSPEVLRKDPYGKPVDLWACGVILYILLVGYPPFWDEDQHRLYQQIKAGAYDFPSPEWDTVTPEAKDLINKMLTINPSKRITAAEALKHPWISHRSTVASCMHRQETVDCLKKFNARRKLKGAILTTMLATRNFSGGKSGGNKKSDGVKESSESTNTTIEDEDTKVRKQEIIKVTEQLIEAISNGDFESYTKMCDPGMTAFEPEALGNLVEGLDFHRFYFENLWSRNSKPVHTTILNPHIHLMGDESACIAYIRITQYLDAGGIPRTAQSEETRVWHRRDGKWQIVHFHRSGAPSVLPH
Effect on: enzyme activity
Mode: inhibitor
Concentration: 10 µM
Measurement: inhibition
COc1ccccc1O: 4%
COC1=CC(=O)c2ccccc2C1=O: -45%
N=C(N)NCCN1CCCCCCC1: -16%
N[C@H](C(=O)O)[C@@H]1CC(Cl)=NO1: -16%
C[C@H](CC[C@@H](O)C(C)(C)O)[C@H]1CC[C@@]2(C)[C@@H]3CC=C4[C@@H](CC[C@H](O[C@@H]5O[C@H](CO)[C@@H](O)[C@H](O)[C@H]5O)C4(C)C)[C@]3(C)[C@H](O)C[C@]12C: 6%
O=c1c(-c2ccc(O)cc2)coc2cc(O[C@@H]3O[C@H](CO)[C@@H](O)[C@H](O)[C@H]3O)ccc12: 16%
CCOC(=O)/C=C/C(=O)OCC: -59%
Oc1cccc(-c2c3nc(c(-c4cccc(O)c4)c4ccc([nH]4)c(-c4cccc(O)c4)c4nc(c(-c5cccc(O)c5)c5ccc2[nH]5)CC4)C=C3)c1: 17%
O=C(O)CCc1ccc(O)c(O)c1: -45%
C[C@@H]1O[C@@H](O[C@@H]2[C@@H](O)[C@H](OCCc3ccc(O)c(O)c3)O[C@H](CO)[C@H]2OC(=O)/C=C/c2ccc(O)c(O)c2)[C@H](O)[C@H](O)[C@H]1O: -16%
CC(C)=CCC[C@](C)(O)[C@H]1CC[C@]2(C)[C@@H]1[C@H](O)C[C@@H]1[C@@]3(C)CC[C@H](O)C(C)(C)[C@@H]3[C@@H](O[C@@H]3O[C@H](CO)[C@@H](O)[C@H](O)[C@H]3O[C@@H]3OC[C@@H](O)[C@H](O)[C@H]3O)C[C@]12C: -55%
CCO/N=C(\C(=O)N[C@@H]1C(=O)N2C(C(=O)O)=C(Sc3nc(-c4cc[n+](C)cc4)cs3)CS[C@H]12)c1nsc(NP(=O)(O)O)n1: 2%
CCOC(=O)/C=C(C)/C=C/C=C(C)/C=C/c1c(C)cc(OC)c(C)c1C: -7%
COc1c2ccoc2nc2c(O)cccc12: -48%
O=C[C@H](O)[C@H]1OC(=O)[C@@H](O)[C@H]1O: 4%

Some of these lines once more (study 1):
Alpha-2B adrenergic receptor (ADRA2B, Homo sapiens, UniProt P18089): 0.72
G-protein coupled receptor 171 (GPR171, Homo sapiens, UniProt O14626): 1.16
Prostaglandin D2 receptor (PTGDR, Homo sapiens, UniProt Q13258): 2.02
Muscarinic acetylcholine receptor M5 (CHRM5, Homo sapiens, UniProt P08912): 0.7
C-C chemokine receptor type 2, isoform B (CCR2, Homo sapiens, UniProt P41597): 0.94
G-protein coupled receptor family C group 6 member A (GPRC6A, Homo sapiens, UniProt Q5T6X5): 1.44 fold
Alpha-2A adrenergic receptor (ADRA2A, Homo sapiens, UniProt P08913): 1.44
Galanin receptor type 2 (GALR2, Homo sapiens, UniProt O43603): 0.94 fold
Neuropeptide Y receptor type 2 (NPY2R, Homo sapiens, UniProt P49146): 0.67
Histamine H2 receptor (HRH2, Homo sapiens, UniProt P25021): 0.88 fold
